Experimental data collected from several papers.
“And” joins repeats or separate records; there may be more than shown. ± gives the spread as reported.

| SMILES | test | system | conditions | quantity | result |
| --- | --- | --- | --- | --- | --- |
| CO[C@H]1C[C@@H]2CC[C@@H](C)[C@@](O)(O2)C(=O)C(=O)N2CCCC[C@H]2C(=O)O[C@H]([C@H](C)C[C@@H]2CC[C@@H](OC(=O)NCCOCCOCCOCCOCCOCCOCCOCCOCCC(=O)N3CCc4cc(Cn5nc(-c6ccc7oc(N)nc7c6)c6c(N)ncnc65)ccc4C3)[C@H](OC)C2)C[C@@H](O)[C@H](C)/C=C(\C)[C@@H](O)[C@@H](OC)C(=O)[C@H](C)C[C@H](C)/C=C/C=C/C=C/1C | phase 1 dose escalation, item: headache | advanced solid tumour patients | intravenous, 12 mg weekly, grade ≥3 | TRAE incidence | 0% |
| CC1(C)CN(CCCCC(=O)N[C@H](Cc2ccc(O)c(I)c2)C(=O)N[C@H](Cc2ccccc2)C(=O)N[C@H](CCCCNC(=O)CCCCCCC(=O)NCCCC[C@H](NC(=O)N[C@@H](CCC(=O)O)C(=O)O)C(=O)O)C(=O)O)CC[N]2CC(C)(C)[S][Tc]2(=[O])[S]1 (some centres unmarked) [technetium-99m labelled] | radio-HPLC | PBS | 20 h, 25 °C | intact fraction | 98% |
| [O-][S+]1CCc2nc(N3CCC(c4ncc(Cl)cn4)CC3)nc(NC3(CO)CCC3)c21 (centres unmarked) | item: oral hypoaesthesia | healthy male humans | 12 mg twice daily | adverse event incidence | 12.5% |
| CC(C)[C@H](N)C(=O)NCCCS(=O)(=O)O |  | human | oral, 265 mg twice daily, 1 h post-dose, steady state, week 65 | plasma concentration | 4910 ng/mL |
| C[C@]1(O)C[C@@](N)(c2ccc(-c3nc4n(c3-c3ccccc3)COc3ccncc3-4)cc2)C1 |  | human, advanced or metastatic solid tumours | 16 mg once daily, dose-response cohort | patients with Hyperglycemia TEAE | 0% |
| C[C@@H]1OC(=O)NN=C1c1ccc(-c2ccc(F)cc2)c(C(F)(F)F)c1 | phase I, first in human, item: blood alkaline phosphatase increased | human | concentration not given, worst grade 1, all doses | patients with TEAE | 20% |
| CC1(C)[C@H](C(=O)O[C@H](C#N)c2cccc(Oc3ccccc3)c2)[C@@H]1C=C(Br)Br | item: CYP3A4 | human, age 6 months, recombinant human CYP3A4 | 0.1 µM | enzyme contribution to clearance | 0.57% |
| O[C@H]1CCCN[C@@H]1CCCn1cnc2c(Cl)c(Cl)ccc21 |  | healthy human, plasma | oral, 150 mg twice daily, steady state | AUCtau | 1260 ng·h/mL |
| COc1cc2c(cc1OC)CN(CCc1ccc(NC(=O)c3cccc4c(=O)c5cccc(OC)c5[nH]c34)cc1)CC2 |  | CD-1 mouse, male, plasma | intraperitoneal, 3 mg/kg | half-life | 427 min |
| CC[C@H](C)[C@H](NC(=O)[C@@H](NC(=O)[C@H](Cc1ccccc1)NC(=O)CNC(=O)[C@H](CCC(N)=O)NC(=O)[C@H](CCCCN)NC(=O)[C@H](C)N)C(C)C)C(=O)N[C@@H](Cc1ccc(O)cc1)C(=O)N[C@@H](CCCNC(=N)N)C(=O)N[C@H](C(=O)N[C@@H](CCCNC(=N)N)C(=O)N[C@H](C(=O)N[C@@H](CCCNC(=N)N)C(=O)N[C@@H](CCCNC(=N)N)C(=O)NCC(=O)N[C@@H](CC(N)=O)C(=O)N[C@@H](CCCNC(=N)N)C(=O)N[C@@H](CCCCN)C(N)=O)C(C)C)C(C)C | reversed-phase UPLC | C18 column, TFA |  | elution acetonitrile content | 37.4% |
| CC[C@H](C)[C@H](NC(=O)[C@H](Cc1ccccc1)NC(=O)[C@H](CCC(=O)O)NC(=O)[C@H](CCCNC(=N)N)NC(=O)[C@H](C)NC(=O)[C@H](C)NC(=O)[C@H](CCC(N)=O)NC(=O)[C@H](CCC(=O)O)NC(=O)[C@H](CCC(=O)O)NC(=O)[C@H](CC(C)C)NC(=O)[C@H](Cc1ccc(O)cc1)NC(=O)[C@H](CO)NC(=O)[C@H](CO)NC(=O)[C@@H](NC(=O)[C@H](CC(=O)O)NC(=O)[C@H](CO)NC(=O)[C@@H](NC(=O)[C@H](Cc1ccccc1)NC(=O)[C@@H](NC(=O)CNC(=O)[C@H](CCC(=O)O)NC(=O)[C@H](C)NC(=O)CCc1cnc[nH]1)[C@@H](C)O)[C@@H](C)O)C(C)C)C(=O)N[C@@H](C)C(=O)N[C@@H](Cc1c[nH]c2ccccc12)C(=O)N[C@@H](CC(C)C)C(=O)N[C@H](C(=O)N[C@@H](CCCNC(=N)N)C(=O)NCC(=O)N[C@@H](CCCNC(=N)N)C(=O)N[C@@H](CCCCNC(=O)COCCOCCNC(=O)COCCOCCNC(=O)CC[C@H](NC(=O)CCCCCCCCCCCCCCCCC(=O)O)C(=O)O)C(=O)NCC(=O)NCC(=O)N[C@@H](CO)C(=O)N[C@@H](CCCCNC(=O)[C@H](CCCCNc1c(NCCCCCN(O)C(=O)CCC(=O)NCCCCCN(O)C(=O)CCC(=O)NCCCCCN(O)C(C)=O)c(=O)c1=O)Nc1c(NCCCCCN(O)C(=O)CCC(=O)NCCCCCN(O)C(=O)CCC(=O)NCCCCCN(O)C(C)=O)c(=O)c1=O)C(=O)O)C(C)C [zirconium-89 labelled] | ex vivo gamma counting | Sprague-Dawley rat, male, muscle | intravenous, 1 nmol, 24 h | tissue uptake | 0.067 %ID/g and 0.071 %ID/g and 0.068 %ID/g and 0.083 %ID/g and 0.081 %ID/g |
| COc1cc2c(Oc3ccc4[nH]c(C)cc4c3F)ccnc2cc1OCC1(N)CC1 |  | paediatric recurrent refractory sarcoma | 10 mg | Hyperthyroidism incidence | 0% |
| COC[C@]12CN(C)[C@@H]3[C@@H]4[C@H](OC)[C@H]1[C@@]3([C@@H](OC)C[C@H]2O)[C@@H]1C[C@@]2(O)[C@H](OC(=O)c3ccccc3)[C@@H]1[C@]4(OC(C)=O)[C@@H](O)[C@@H]2OC |  | Sprague-Dawley rat, plasma | oral, dose not given, in PCW extract | MRT(0-t) | 2.65 ± 0.921 h |
| COc1ccc(C[C@@H]2NC(=O)[C@H]([C@@H](C)O)NC(=O)[C@@H]3[C@@H]4CCN3C(=O)[C@@H]3Cc5cn(c6ccc(F)cc56)CCCCCCN(Cc5ccc(cc5)CCNC(=O)[C@]5(C)CCCN5C2=O)C(=O)CCC(=O)N[C@@H](C)C(=O)N[C@H](CNC(=O)CCCCC[N+](C)(C)C)C(=O)N[C@@H](Cc2cccc(c2)CNC(=O)CO4)C(=O)N3)cc1 | item: Headache | humans | concentration not given, Study-003 | participants with adverse event | 16.1% |

For quick reference, copied from above:
| SMILES | test | system | conditions | quantity | result |
| --- | --- | --- | --- | --- | --- |
| C[C@]1(O)C[C@@](N)(c2ccc(-c3nc4n(c3-c3ccccc3)COc3ccncc3-4)cc2)C1 |  | human, advanced or metastatic solid tumours | 16 mg once daily, dose-response cohort | patients with Hyperglycemia TEAE | 0% |
| C[C@@H]1OC(=O)NN=C1c1ccc(-c2ccc(F)cc2)c(C(F)(F)F)c1 | phase I, first in human, item: blood alkaline phosphatase increased | human | concentration not given, worst grade 1, all doses | patients with TEAE | 20% |
